Assay results gathered from unrelated publications.
Every numbered part comes from another study and shows a few of its results, in no order.

Sample 1
Target: Histone acetyltransferase KAT6A, winged helix 2, GST fusion (KAT6A, Homo sapiens, UniProt Q92794, residues 85-181)
Method: protein binding microarray
Form: double-stranded DNA, one strand shown
Matrix: in vitro
Concentration: not given
Notes: 8-mer, flanks averaged, mean of 2 arrays, mostly near background
Baseline: not given
Direction: higher = stronger binding
Residues (chain): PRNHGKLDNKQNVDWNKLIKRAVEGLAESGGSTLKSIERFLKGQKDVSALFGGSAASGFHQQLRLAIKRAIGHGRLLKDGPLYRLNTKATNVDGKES
Strand	E-score
TCTGTCAA	-0.0355
GTAAAAAA	0.141
GAAGTAAC	-0.162
AACCGGAC	-0.022

Sample 2
Target: Fragile X messenger ribonucleoprotein 1, C-terminal low-complexity region (Fmr1, Mus musculus, UniProt P35922)
Method: RNA Bind-n-Seq
Form: RNA
Matrix: in vitro
Concentration: 200 nM
Notes: whole 134-nt RNA, ends assumed
Together with: 150 mM KCl
Baseline: input library
Direction: higher = stronger binding
Strand	log2 enrichment
GGGAGUUCUACAGUCCGACGAUCAGUCCUGUGCUACACAUCGUAUGUACCGAAUCGGGUUUUUGGGAAAAAGGGUUUGGGAAAGUAUUAUGUUACGCCGUUCGGAUCUGCACUUGGAAUUCUCGGGUGUCAAGG	0.0498
GGGAGUUCUACAGUCCGACGAUCCACAGACAACACGCACCCACACAGACACAGAGGGAAGGGGUUGGGAUGGGGACAGGGUGCACAGCAGGGCGGGGUAGGACCCCAGGCCCUUGGAAUUCUCGGGUGUCAAGG	1.24
GGGAGUUCUACAGUCCGACGAUCGCAGGAAGUAAAAACAAAUAGAAAUGCUUCGGAUAGUGGCAGGGGUGGGGGUUGCUAAGGAAAGGGUGGGAUGGGAGUGGGUAAAGAGUUUGGAAUUCUCGGGUGUCAAGG	0.252

Other studies, line by line
Molecule	target or system	test	test system	conditions	scale	quantity	result
PhoQ, residues 284 288 289 292 302 303 ASASEQ	PhoP, residues 12 14 15 18 19 IQSYL (Escherichia coli, UniProt P23836)	Sort-seq, measured: YFP reporter	E. coli	PhoQ-PhoP variant library, together with: 10 µM Mg2+	baseline: high Mg2+ state, higher = stronger signaling	fold induction	8.32
H2BC21 (Homo sapiens, UniProt Q16778)	H2AC1 (Homo sapiens, UniProt Q96QV6)	cross-linking MS	–	hits only	–	interaction screen	cross-linked

Repeated from above (other studies, line by line):
Molecule	target or system	test	test system	conditions	scale	quantity	result
H2BC21 (Homo sapiens, UniProt Q16778)	H2AC1 (Homo sapiens, UniProt Q96QV6)	cross-linking MS	–	hits only	–	interaction screen	cross-linked
